Measurements pooled from the literature.
Compare with care: the assays were run in different laboratories. Several values in a cell are separate wells, animals, samples, runs or records. ± marks the error that the study gave.

For `CCCCN1C(=O)c2cccc3c(NCCCCCCCCN4CCOCC4)ccc(c23)C1=O`, “molar extinction coefficient” read 11200 M⁻¹ cm⁻¹ (dioxane).
Under “peripheral volume (V2/F)”, `C=C[C@]1(C)C[C@@H](OC(=O)CSc2ccc(NC(=O)c3ccco3)cc2)[C@]2(C)[C@H](C)CC[C@]3(CCC(=O)[C@H]32)[C@@H](C)[C@@H]1O` is recorded as 1.49 L/kg (M. gallisepticum-infected chickens, plasma; intramuscular, 5 mg/kg single dose).
The plasma concentration of `O=C1CCC(N2Cc3cc(C(=O)O)c(F)cc3C2=O)C(=O)N1` (stereo not shown) is reported as 8.4 ± 9.1 ng/mL (cynomolgus monkey, male; oral, 0.3 mg/kg parent drug, 3 h).
With `C=CC(=O)Nc1cc(Nc2nccc(-c3cn(C)c4ccccc34)n2)c(OC)cc1N(C)CCNC` the recovery was 89.5% (storage stability; human plasma; 24 h, on ice, medium QC level).
Under “radioactivity recovery per interval”, `Cc1cc(-c2ccc(C(=O)[C@@H]3CCCC[C@H]3C(=O)Nc3cnn4c3C(=O)NCC4)cc2)[nH]n1` is recorded as 0.01% and 0.02% and 0.03% and 0.04% (human, urine; oral, 200 mg, 96-120 h; baseline: dose).
With `CCCC[C@H](OC(C)=O)c1ccccc1C(=O)O` the Cmax was 16300 ± 2590 ng/mL (Sprague-Dawley rat, both sexes, whole blood; intravenous, 5 mg/kg, day 7).
`COc1ccc([C@@H]2CC(=O)c3c(O)cc(O[C@@H]4O[C@H](CO)[C@@H](O)[C@H](O)[C@H]4O[C@@H]4O[C@@H](C)[C@H](O)[C@@H](O)[C@H]4O)cc3O2)cc1O` gave a Cmax of 3.72 ± 1.16 ng/mL (Sprague-Dawley rat, male, obese, plasma; oral, 100 mg/kg).
For `COCC1CN(C2CCN(c3cc(OC)c(Nc4ncc(Br)c(Nc5ccc6c(c5P(C)(C)=O)OCCO6)n4)cc3C)CC2)C1`, the Tmax was 120 min (EGFR-mutant NSCLC patients, plasma; oral, 10 mg single dose, median).
`Cc1n[nH]c(C)c1CCCOc1cc(C(=O)NCCCCC(NC(=O)CN2CCN(CC(=O)[O-])CCN(CC(=O)[O-])CCN(CC(=O)[O-])CC2)C(=O)NCC2CCC(C(=O)NC(Cc3ccc4ccccc4c3)C(=O)NCCCCC(NC(=O)NC(CCC(=O)O)C(=O)O)C(=O)O)CC2)ccc1F.[68Ga+3]` (stereo not shown) — result for “mean tumour uptake”: 12.3 ± 0.9 %ID/g (micro-PET/CT; mouse 22Rv1 xenograft, tumour; 4 h post-injection).
Under cardiac function, `CCC(CC)n1c(Cc2ccco2)nc2cc(C(=O)N[C@@H](CC(=O)O)c3ccccc3)ccc21` is recorded as “no effect” (echocardiography, item: LVEF, FS; mouse; dose not given, 2 wk).
`CCCCN1C(=O)c2cccc3c(NCCCCCN4CCOCC4)ccc(c23)C1=O` — result for “fluorescence quantum yield”: 0.73 (ethylene glycol).
Under “elimination rate constant”, `CC[C@H](C)[C@H](NC(=O)[C@H](Cc1ccc(O)cc1)NC(=O)[C@@H](NC(=O)[C@H](CCCNC(=N)N)NC(=O)[C@@H](N)CC(=O)O)C(C)C)C(=O)N[C@@H](Cc1c[nH]cn1)C(=O)N1CCC[C@H]1C(=O)O` is recorded as 0.025 min⁻¹ (LC-MS/MS; Sprague-Dawley rats, plasma; subcutaneous, 10 mg/kg/day, day 0).
`CCN(CC)c1ccc2c(c1)O[B-]1(c3ccccc3)OC(=O)C(c3ccccc3)=N[N+]1=C2` (stereo not shown) — result for “molar absorption coefficient”: 60000 M⁻¹ cm⁻¹ (toluene).
`COc1cccc(OC)c1-c1cc(C(=O)NC2(C(=O)O)C3CC4CC(C3)CC2C4)nn1-c1ccc(C(=O)NCCNC(=O)[C@H](CCCCNC(=O)[C@H](CC(C)C)NC(=O)C2OC2C(=O)O)NC(=O)CN2CCN(CC(=O)[O-])CCN(CC(=O)[O-])CCN(CC(=O)[O-])CC2)cc1C(C)C.[177Lu+3]` (mixture of isomers) has a tumour-to-brain ratio of 88.6 (mouse, HT-29 xenograft; 24 h post injection, biodistribution; baseline: tumour over brain uptake).
`Oc1ccc([C@@H]2Oc3ccc(O)cc3[C@@H]3CCC[C@@H]32)cc1` has an AUC(all) of 0.85 µM·h (mouse, plasma; intravenous, 1 mg/kg).
With `C=CC(=O)Nc1cc(Nc2nccc(-c3c[nH]c4ccccc34)n2)c(OC)cc1N(C)CCN(C)C` the recovery was 81.1% (storage stability; human dried blood spot; 2 h, on ice, LLOQ level).
`C/C(N)=N/C(=N\S(=O)(=O)c1ccc(C(F)(F)F)cc1)N1C[C@H](c2ccccc2)C(c2ccc(Cl)cc2)=N1` has an oral bioavailability of 76.7% (Sprague-Dawley rat male, plasma; oral, 30 mg/kg).
With `Cc1nc(N)nc2c1C(=O)N[C@@H](c1ccc(F)cc1-c1cccc(O[11CH3])n1)C2` the tracer uptake was 3.9 ± 0.6 %ID (ex vivo biodistribution; mice, U87 subcutaneous xenograft, blood; 60 min post-injection, baseline, vehicle pre-treatment).
For `[123I]c1ccc2nc(-c3ccc(-n4ccnn4)nc3)cn2c1`, the tracer uptake was 0.073 %ID/g (male Wistar rat, heart; intravenous, 4 MBq, 1 h).
`C=CC(=O)N1CCCC(n2c(=O)c3ncccc3n(Cc3ccc(Oc4ccccc4)cc3)c2=O)C1` (stereo not shown) has a plasma concentration of 5070 ng/mL and 2920 ng/mL and 6240 ng/mL (male BALB/c mice, plasma; oral, 200 mg/kg, 6 h).
`O=C(Nc1cnccc1-c1ccc([18F])cc1)c1ccnc(NC(=O)C2CC2)c1` has an SUV of 0.12 (ex vivo gamma counting; GSK-3β transgenic mice, late-stage, hippocampus; intravenous, 1.26 MBq/animal, 120 min, mean, no P-gp inhibitor).
The bioavailability of `CC[C@H](C)[C@@H]1NC(=O)[C@H](Cc2ccc(O)cc2)NC(=O)CCCSC[C@@H](C(=O)N(CC(=O)N[C@@H](CC(C)C)C(=O)NCC(N)=O)Cc2ccc(F)cc2)NC(=O)[C@H](CC(N)=O)NC(=O)[C@H](CCC(N)=O)NC1=O` is reported as 3.7% (human; intranasal; baseline: intravenous).
`C=C(NC(=O)c1csc(-c2nc3c(cc2O)-c2nc(cs2)C(=O)NC(C(C)O)C(=O)NC(=C(C)OC)c2nc(cs2)C(=O)NC2c4nc(cs4)C(=O)NC(COC(=O)c4c5c6c(cccc6n4O)COC(=O)C(OC4CC(C)(O)C(N(C)C)C(C)O4)C2OC5)c2nc-3cs2)n1)C(N)=O` (stereo not shown): “faecal excretion unchanged” 0.58% (Sprague-Dawley rats, both sexes, faeces; intravenous, 6 mg/kg, 48 h; baseline: dose).
`CC(=O)N([O-])CCCCCNC(=O)CCC(=O)N([O-])CCCCCNC(=O)CCC(=O)N([O-])CCCCCN.[89Zr+4]` gave an intact complex of 98.3 ± 0.7% (radio-TLC; aqueous buffer; 1 d, pH 8.5, 37 °C, 89Zr-labelled complex, together with: DTPA 1000-fold excess).
For `CCCCN1C(=O)c2cccc3c(NCCCCCCN4CCOCC4)ccc(c23)C1=O`, “molar extinction coefficient” read 13100 M⁻¹ cm⁻¹ (water; pH 6.0).
For `CCCCCCCOc1ccc(CC[C@](N)(CO)COP(=O)(O)O)cc1C(F)(F)F`, “urinary excretion (0-24 h)” read 0% (healthy men, urine; oral, 0.75 mg once daily, day 1, fed state; baseline: dose).
For `C[C@@H](Nc1c(-c2c(F)cc(C#N)cc2F)c(Cl)nc2ncnn12)C(C)(C)C`, “insoluble Aβ42 level” read “decreased” (ELISA; 5XFAD transgenic mice, hippocampus; intraperitoneal, 1 mg/kg twice weekly, 4 weeks).
For `CN1CCC[C@]1(C)/C=C/S(=O)(=O)NC(=O)Nc1c2c(cc3c1CCC3O)CCC2` (stereo partly shown), the AUC(0-t) was 925 µg·h/mL (human, plasma; oral, 50 mg twice daily of parent drug, day 14, metabolite of dosed drug).
Under “conditioned place preference score”, `C[C@@]1(c2nc(-c3ccc(F)c4cn[nH]c34)no2)CCCN(C(=O)c2ccc(F)nc2)C1` is recorded as 20.1 and 99.7 and 45.9 and 5.34 and 57.9 (mouse; intraperitoneal, 20 mg/kg; direction not given).
With `CNC(=O)C[C@H](Cc1ccc(C#N)cc1)NC(=O)c1cc(-c2ccc(CN[C@H](C)c3ccc(C)cc3)o2)ccc1Cl` the blood clearance was 65 mL/min/kg (rat liver microsomes; 1 µM).
`Oc1ccccc1/C=N/Nc1nnc(N/N=C/c2ccccc2O)c2ccccc12` gave a haemolysis of 6.5% (haemolysis; human; 1 mM, 45 min).
`CCCCN1C(=O)c2cccc3c(NCCCN4CCOCC4)ccc(c23)C1=O` — result for “molar extinction coefficient”: 4400 M⁻¹ cm⁻¹ (DCM).
For `Cc1[nH]c(=O)c(CNC(=O)c2cc(Cl)c3c(c2C)O[C@@](C)([C@H]2CC[C@H](N(C)C)CC2)O3)c(C)c1O`, the urinary excretion was 1.1% and 0.7% and 0.6% and 0.8% (radiochromatography; human, urine; oral, 200 mg; baseline: dose).
Under “molar extinction coefficient”, `CCCCN1C(=O)c2cccc3c(NCCCCCCCCCCN4CCOCC4)ccc(c23)C1=O` is recorded as 12400 M⁻¹ cm⁻¹ (dichloromethane).
For `O=C(NS(=O)(=O)c1cccs1)c1cc2ccccc2n1Cc1ccc(Br)c2ccccc12`, the MRT(0-inf) was 31.1 min (Sprague-Dawley rat, male, plasma; intravenous, 2 mg/kg).
`CCC(C(=O)Nc1ccc(C(N)=O)c(F)c1)n1cc(OC)c(-c2cc(Cl)ccc2-n2cc(C(F)(F)F)nn2)cc1=O` (stereo not shown): “drug-related adverse events” 0% (healthy male humans; 50 mg, together with: antacid).
The Tmax of `Cc1cc(C)nc(NC(=S)N2CCN(Cc3ccc(C(F)(F)F)cc3)CC2)c1` is reported as 4.98 min (plasma; intraperitoneal, 30 mg/kg).
`O=C([O-])CN1CCN(CC(=O)[O-])CCN(CC(=O)NC[C@H]2CC[C@H](C(=O)N[C@@H](Cc3ccc4ccccc4c3)C(=O)NCCCC[C@H](NC(=O)N[C@@H](CCC(=O)O)C(=O)O)C(=O)O)CC2)CCN(CC(=O)[O-])CC1.[68Ga+3]` gave a distribution half-life of 1.02 min (ICR mice, blood; intravenous).
`CC(C)[C@H](NC(=O)[C@H](Cc1c[nH]c2ccccc12)NC(=O)[C@H](CCCNC(=N)N)NC(=O)[C@H](CCCNC(=N)N)NC(=O)[C@@H](NC(=O)[C@@H](NC(=O)[C@H](CCCNC(=N)N)NC(=O)[C@@H](NC(=O)[C@@H](NC(=O)[C@H](CCCNC(=N)N)NC(=O)[C@H](CCCNC(=N)N)NC(=O)[C@@H](NC(=O)[C@H](Cc1c[nH]c2ccccc12)NC(=O)[C@H](CCCNC(=N)N)NC(=O)[C@H](CCCNC(=N)N)NC(=O)[C@@H](NC(=O)[C@H](CCCNC(=N)N)NC(=O)[C@H](CCCNC(=N)N)NC(=O)[C@@H](NC(=O)[C@H](Cc1c[nH]c2ccccc12)NC(=O)[C@H](CCCNC(=N)N)NC(=O)[C@@H](N)CCCNC(=N)N)C(C)C)C(C)C)C(C)C)C(C)C)C(C)C)C(C)C)C(C)C)C(=O)N[C@@H](CCCNC(=N)N)C(=O)N[C@@H](CCCNC(=N)N)C(=O)O` gave a glucose of 155 mg/dL (CD1 mouse, plasma; intravenous, 15 mg/kg, 24 h, [14C]-labelled compound).
`O=C(Nc1cnccc1-c1ccc([18F])nc1)c1ccnc(NC(=O)C2CC2)c1` gave an SUV of 0.404 (FVB/NJ mice, both sexes, brain; intravenous, 5 min, median, P-gp inhibitor pretreatment, together with: tariquidar 15 mg/kg iv).
The Tmax of `OCCCN1CC[C@@H]2C[C@H]1c1cc(-c3ccc(C(F)(F)F)cc3)ccc12` is reported as 30 min (plasma; ip, concentration not given).
`CCC1C=C(C)C(O)C(C)CC(OC)C2OC(O)(C(=O)C(=O)N3CCCCC3C(=O)OC(C(C)=CC3CCC(O)C(OC)C3)C(C)C(O)CC1=O)C(C)CC2OC` (stereo not shown): blood concentration “not detected” (mouse C57BL/6; topical, dose not given, 24 h).
`COC(=O)[C@@]1(C(C)C)C=C(C(=O)Nc2cccc(C(=O)Nc3ccc(Nc4nccc(-c5cccnc5)n4)c(C)c3)c2)C(=O)CC1` has a compound remaining of 99% and 93.5% (rat, plasma; 1 µM, 30 min).

Repeated from above:
For `CN1CCC[C@]1(C)/C=C/S(=O)(=O)NC(=O)Nc1c2c(cc3c1CCC3O)CCC2` (stereo partly shown), the AUC(0-t) was 925 µg·h/mL (human, plasma; oral, 50 mg twice daily of parent drug, day 14, metabolite of dosed drug).
Under “conditioned place preference score”, `C[C@@]1(c2nc(-c3ccc(F)c4cn[nH]c34)no2)CCCN(C(=O)c2ccc(F)nc2)C1` is recorded as 20.1 and 99.7 and 45.9 and 5.34 and 57.9 (mouse; intraperitoneal, 20 mg/kg; direction not given).
With `CNC(=O)C[C@H](Cc1ccc(C#N)cc1)NC(=O)c1cc(-c2ccc(CN[C@H](C)c3ccc(C)cc3)o2)ccc1Cl` the blood clearance was 65 mL/min/kg (rat liver microsomes; 1 µM).
`Oc1ccccc1/C=N/Nc1nnc(N/N=C/c2ccccc2O)c2ccccc12` gave a haemolysis of 6.5% (haemolysis; human; 1 mM, 45 min).
